Experimental data gathered from unrelated publications.
Numbered parts are unrelated; each lists some results of a single study. “And” joins repeats or separate records; there may be more than shown.
UniProt O70423, sequence (whole entry, looked up): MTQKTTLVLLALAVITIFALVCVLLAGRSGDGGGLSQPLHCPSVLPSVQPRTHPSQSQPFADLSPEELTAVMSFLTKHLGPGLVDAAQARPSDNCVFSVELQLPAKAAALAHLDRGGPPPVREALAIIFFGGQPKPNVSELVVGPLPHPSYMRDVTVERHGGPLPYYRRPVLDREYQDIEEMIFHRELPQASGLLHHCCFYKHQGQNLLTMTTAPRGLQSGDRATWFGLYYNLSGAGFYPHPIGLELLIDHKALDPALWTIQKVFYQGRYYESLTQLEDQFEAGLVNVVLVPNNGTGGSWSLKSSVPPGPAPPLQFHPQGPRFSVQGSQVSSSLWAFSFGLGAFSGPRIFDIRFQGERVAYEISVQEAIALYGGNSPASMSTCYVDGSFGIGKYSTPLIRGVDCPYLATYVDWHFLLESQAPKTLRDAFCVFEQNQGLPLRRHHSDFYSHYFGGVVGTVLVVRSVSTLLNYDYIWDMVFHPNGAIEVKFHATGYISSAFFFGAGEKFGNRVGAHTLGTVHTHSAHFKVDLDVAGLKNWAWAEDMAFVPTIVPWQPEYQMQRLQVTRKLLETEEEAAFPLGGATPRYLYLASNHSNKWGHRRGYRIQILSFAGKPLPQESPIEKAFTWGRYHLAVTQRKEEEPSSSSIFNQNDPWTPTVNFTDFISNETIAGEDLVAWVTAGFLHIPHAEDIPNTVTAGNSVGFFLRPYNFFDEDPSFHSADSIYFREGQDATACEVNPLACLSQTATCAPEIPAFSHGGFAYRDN
UniProt P27338, sequence (whole entry, looked up): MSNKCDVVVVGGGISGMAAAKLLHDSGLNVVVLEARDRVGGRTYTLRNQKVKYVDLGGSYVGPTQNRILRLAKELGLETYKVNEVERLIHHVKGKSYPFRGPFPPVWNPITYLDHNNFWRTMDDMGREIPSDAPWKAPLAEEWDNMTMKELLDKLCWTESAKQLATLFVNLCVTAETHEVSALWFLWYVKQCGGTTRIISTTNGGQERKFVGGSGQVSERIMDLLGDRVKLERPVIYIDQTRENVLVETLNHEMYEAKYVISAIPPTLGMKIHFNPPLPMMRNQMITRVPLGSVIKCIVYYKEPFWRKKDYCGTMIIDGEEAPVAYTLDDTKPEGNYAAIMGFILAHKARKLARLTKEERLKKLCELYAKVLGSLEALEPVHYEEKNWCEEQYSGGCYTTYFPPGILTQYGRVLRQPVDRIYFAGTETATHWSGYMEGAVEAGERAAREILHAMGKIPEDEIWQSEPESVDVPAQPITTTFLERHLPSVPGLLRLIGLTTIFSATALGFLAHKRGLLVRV
UniProt O08590, sequence (whole entry, looked up): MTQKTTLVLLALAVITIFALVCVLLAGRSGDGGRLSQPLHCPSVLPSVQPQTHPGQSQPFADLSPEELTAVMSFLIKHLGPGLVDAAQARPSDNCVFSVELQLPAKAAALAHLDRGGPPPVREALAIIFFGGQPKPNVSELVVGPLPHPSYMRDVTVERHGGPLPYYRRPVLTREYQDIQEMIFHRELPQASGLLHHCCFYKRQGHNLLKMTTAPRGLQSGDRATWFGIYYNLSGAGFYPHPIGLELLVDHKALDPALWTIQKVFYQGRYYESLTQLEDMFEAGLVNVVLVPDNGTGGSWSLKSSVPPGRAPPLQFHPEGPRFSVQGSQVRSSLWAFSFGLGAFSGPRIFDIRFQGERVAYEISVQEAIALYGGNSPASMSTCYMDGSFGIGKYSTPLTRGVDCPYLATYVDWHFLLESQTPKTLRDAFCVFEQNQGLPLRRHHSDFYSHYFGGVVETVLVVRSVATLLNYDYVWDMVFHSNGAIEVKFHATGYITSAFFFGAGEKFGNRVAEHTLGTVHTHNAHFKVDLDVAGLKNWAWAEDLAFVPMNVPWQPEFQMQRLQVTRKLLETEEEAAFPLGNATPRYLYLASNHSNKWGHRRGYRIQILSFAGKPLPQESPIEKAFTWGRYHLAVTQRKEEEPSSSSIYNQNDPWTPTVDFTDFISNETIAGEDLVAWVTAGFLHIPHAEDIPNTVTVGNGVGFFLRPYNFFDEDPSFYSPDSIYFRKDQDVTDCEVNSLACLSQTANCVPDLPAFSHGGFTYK

Study 1
SMILES: CS(=O)(=O)c1ccc(OC/C(=C/F)CN)cc1.Cl
target | observed | mode | matrix | tested at | inhibition
Amine oxidase [copper-containing] 3 (Mus musculus, UniProt O70423) |  |  | mouse adipose tissue | 0.0002 µM | 5.43%
Amine oxidase [copper-containing] 3 (Rattus norvegicus, UniProt O08590) |  |  | rat adipose tissue | 0.1111 µM | 99.2%
Amine oxidase [copper-containing] 3 (Mus musculus, UniProt O70423) |  |  | mouse adipose tissue | 0.1111 µM | 98.7%
Amine oxidase [flavin-containing] B (MAOB, Homo sapiens, UniProt P27338) | enzyme activity | inhibitor |  | 0.1235 µM | -0.785% and -4.11%
Amine oxidase [copper-containing] 3 (Mus musculus, UniProt O70423) |  |  | mouse adipose tissue | 0.0005 µM | 17.3%
Amine oxidase [copper-containing] 3 (Mus musculus, UniProt O70423) |  |  | mouse adipose tissue | 0.3333 µM | 99%

Study 2
Structure (SMILES): CC(C)(C)c1ccc(Oc2ccc3c(c2)OC(O)(C(=O)O)C(=O)N3Cc2ccccc2)cc1 (stereo not shown)
organism | assay | test system | setting | scale | inhibition
Arabidopsis thaliana | hypocotyl length | Col-0 | 12.5 µg/mL, 7 days, seed germination, dark |  | 22.8%
Amaranthus retroflexus | fresh weight |  | 150 g ai/ha, post-emergence treatment |  | 59.4% and 59% and 59.2%
Arabidopsis thaliana | hypocotyl length | Col-0, seedlings | 100 µg/mL |  | 48.6%
Arabidopsis thaliana | root length | Col-0, seedlings | 50 µg/mL |  | 64.8%
Arabidopsis thaliana | hypocotyl length | Col-0 | 100 µg/mL, 7 days, seed germination, dark |  | 48.6%
Arabidopsis thaliana | hypocotyl length | Col-0, seedlings | 12.5 µg/mL |  | 22.8%
Arabidopsis thaliana | root length | Col-0, seedlings | 6.25 µg/mL | baseline: water control | 22.6%
Glycine max | fresh weight |  | soil surface spray, 150 g ai/ha, 21 days, pre-emergence crop safety |  | 11.8% and 12.3% and 13.1%
Arabidopsis thaliana | hypocotyl length | Col-0 | 25.0 µg/mL, 7 days, seed germination, dark |  | 28.2%
Arabidopsis thaliana | root length | Col-0, seedlings | 25 µg/mL | baseline: water control | 51.2%
Arabidopsis thaliana | root length | Col-0, seedlings | 25 µg/mL |  | 51.2%
Avena fatua | fresh weight |  | 150 g ai/ha, pre-emergence treatment |  | 78.3% and 70.9% and 72.5%
Arabidopsis thaliana | root length | Col-0, seedlings | 50 µg/mL | baseline: water control | 64.8%

Study 3
Cell line: L444P/L444P Gaucher fibroblasts
Technique: 4-MUG hydrolysis in lysate
Tested at: 1 µM
Time: 72 h
Baseline: vehicle
Compound | enzyme activity
Ic1ccc(Nc2nc(NCCc3c[nH]c4ccccc34)nc(N3CCOCC3)n2)cc1 | 196% and 177% and 173% and 174% and 186%
Ic1cccc(Nc2nc(NCCN3CCOCC3)nc(N3CCOCC3)n2)c1 | 110%
Ic1ccc(Nc2nc(NCCN3CCOCC3)nc(N3CCCCC3)n2)cc1 | 100%
CCOc1ccc2nc(Sc3nc(Nc4ccc(I)cc4)nc(N4CCOCC4)n3)sc2c1 | 115% and 107% and 106% and 121% and 117%
COc1ccc(Nc2nc(NCCN3CCOCC3)nc(N3CCOCC3)n2)cc1 | 98%
Ic1ccc(Nc2nc(NCCN3CCOCC3)nc(N3CCCC3)n2)cc1 | 98%
Ic1ccc(Nc2nc(NCCCN3CCOCC3)nc(N3CCOCC3)n2)cc1 | 158%
CCOc1ccc2nc(Sc3nc(Nc4ccc(OC)cc4)nc(N4CCOCC4)n3)sc2c1 | 120%

Study 4
Structure (SMILES): Cc1ccc(O)c(C)c1-c1cnc2[nH]c(-c3cnc(N4CCC(CN5CCN(c6ccc(NC7CCC(=O)NC7=O)cc6F)CC5)CC4)nc3)cc2c1C#N (stereo not shown)
Target: Membrane-associated tyrosine- and threonine-specific cdc2-inhibitory kinase (PKMYT1, Homo sapiens, UniProt Q99640)
UniProt Q99640, sequence (whole entry, looked up): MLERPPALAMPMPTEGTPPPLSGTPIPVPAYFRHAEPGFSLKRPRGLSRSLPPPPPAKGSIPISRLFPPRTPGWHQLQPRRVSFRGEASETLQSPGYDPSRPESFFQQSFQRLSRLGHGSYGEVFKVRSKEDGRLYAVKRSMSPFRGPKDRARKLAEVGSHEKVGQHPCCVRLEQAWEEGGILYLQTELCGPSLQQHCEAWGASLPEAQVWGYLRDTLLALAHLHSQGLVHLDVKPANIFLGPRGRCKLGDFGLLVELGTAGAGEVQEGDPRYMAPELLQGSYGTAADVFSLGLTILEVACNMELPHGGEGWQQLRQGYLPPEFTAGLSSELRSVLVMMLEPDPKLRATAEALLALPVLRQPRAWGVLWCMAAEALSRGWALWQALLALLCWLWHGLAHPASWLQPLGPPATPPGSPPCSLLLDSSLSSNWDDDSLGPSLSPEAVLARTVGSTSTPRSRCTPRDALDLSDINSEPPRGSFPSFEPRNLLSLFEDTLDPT
observed | mode | technique | tested at | inhibition
 |  |  | 0.00137 µM | 16%
cell-free assay | inhibitor | TR-FRET | 1 µM | 97.5%
cell-free assay | inhibitor | TR-FRET | 0.1111 µM | 96.6%
cell-free assay | inhibitor | TR-FRET | 460 pM | 0.78%
 |  |  | 0.3333 µM | 99.2%
cell-free assay | inhibitor | TR-FRET | 51 pM | -10.4%
cell-free assay | inhibitor | TR-FRET | 152 pM | -5.48%
cell-free assay | inhibitor | TR-FRET | 12.35 nM | 72.3%
cell-free assay | inhibitor | TR-FRET | 1.37 nM | 17.2%
cell-free assay | inhibitor | TR-FRET | 0.3333 µM | 99.6%

Study 5
SMILES: COCC1CC2C(CCC3C(O)CCC32)c2ccc(O)cc21 (stereo not shown)
cell line | technique | item | tested at | baseline | log2 fold change
SK-OV-3 | microarray | PIF1 | 25 µM | untreated | -0.302
SK-OV-3 | microarray | AURKA | 100 µM | untreated | 0.0601
A549 | DNA microarray | KIF20A | 100 µM | untreated cells | -0.28 and -0.23 and -0.245 and -0.266 and -0.229
PANC-1 | microarray | GZMK | 100 µM | untreated | 0
A549 | DNA microarray | TMEM108 | 100 µM | untreated cells | 1.58
PANC-1 | microarray | CCL11 | 25 µM | untreated | 6.69
PANC-1 | DNA microarray | TMEM108 | 25 µM | untreated cells | 1.02
PANC-1 | DNA microarray | MCM10 | 100 µM | untreated cells | 0.18
SK-OV-3 | DNA microarray | ADAMTS14 | 100 µM | untreated | 2.3
SK-OV-3 | DNA microarray | MCM10 | 100 µM | untreated cells | -0.449
PANC-1 | microarray | SPC25 | 100 µM | untreated | 0.49
A549 | microarray | MCM6 | 100 µM | untreated | -0.129
SK-OV-3 | microarray | CCL11 | 25 µM | untreated | 7.82
PANC-1 | DNA microarray | ADAMTS14 mRNA | 25 µM | control | 2.52
PANC-1 | DNA microarray | MCM10 | 25 µM | untreated cells | 0.533
PANC-1 | microarray | CDC25B | 25 µM | untreated | -0.0899
SK-OV-3 | DNA microarray | KIF20A | 25 µM | untreated cells | -0.0696 and -0.0752 and -0.0508 and -0.0497 and 0.00569
SK-OV-3 | microarray | RFC3 | 100 µM | untreated | -0.0738
A549 | microarray | PIF1 | 25 µM | untreated | -0.227
SK-OV-3 | DNA microarray | MCM7 | 25 µM | untreated cells | 0.0149
PANC-1 | DNA microarray | TMEM108 | 100 µM | untreated cells | 0.739

Study 6
SMILES: C[C@@H]1CN(c2ccc(-c3cc(C(=O)NCCOCCOCCOCCOCCNC(=O)Cn4cc(-c5[nH]cc(C(=O)N[C@@H](CC(N)=O)c6ccc(F)c(Cl)c6)c5-c5ccc(Cl)cc5F)cn4)ccc3F)cc2NC(=O)c2c[nH]c(=O)cc2C(F)(F)F)C[C@H](C)N1C
Observed: thermal unfolding
Technique: differential scanning fluorimetry
Tested at: 5.5 µM
Reading: higher = more unfolded
WDR5: WD repeat-containing protein 5 (WDR5, Homo sapiens, UniProt P61964)
DCAF1: DDB1- and CUL4-associated factor 1 (DCAF1, Homo sapiens, UniProt Q9Y4B6)
UniProt Q9Y4B6, sequence (whole entry, looked up): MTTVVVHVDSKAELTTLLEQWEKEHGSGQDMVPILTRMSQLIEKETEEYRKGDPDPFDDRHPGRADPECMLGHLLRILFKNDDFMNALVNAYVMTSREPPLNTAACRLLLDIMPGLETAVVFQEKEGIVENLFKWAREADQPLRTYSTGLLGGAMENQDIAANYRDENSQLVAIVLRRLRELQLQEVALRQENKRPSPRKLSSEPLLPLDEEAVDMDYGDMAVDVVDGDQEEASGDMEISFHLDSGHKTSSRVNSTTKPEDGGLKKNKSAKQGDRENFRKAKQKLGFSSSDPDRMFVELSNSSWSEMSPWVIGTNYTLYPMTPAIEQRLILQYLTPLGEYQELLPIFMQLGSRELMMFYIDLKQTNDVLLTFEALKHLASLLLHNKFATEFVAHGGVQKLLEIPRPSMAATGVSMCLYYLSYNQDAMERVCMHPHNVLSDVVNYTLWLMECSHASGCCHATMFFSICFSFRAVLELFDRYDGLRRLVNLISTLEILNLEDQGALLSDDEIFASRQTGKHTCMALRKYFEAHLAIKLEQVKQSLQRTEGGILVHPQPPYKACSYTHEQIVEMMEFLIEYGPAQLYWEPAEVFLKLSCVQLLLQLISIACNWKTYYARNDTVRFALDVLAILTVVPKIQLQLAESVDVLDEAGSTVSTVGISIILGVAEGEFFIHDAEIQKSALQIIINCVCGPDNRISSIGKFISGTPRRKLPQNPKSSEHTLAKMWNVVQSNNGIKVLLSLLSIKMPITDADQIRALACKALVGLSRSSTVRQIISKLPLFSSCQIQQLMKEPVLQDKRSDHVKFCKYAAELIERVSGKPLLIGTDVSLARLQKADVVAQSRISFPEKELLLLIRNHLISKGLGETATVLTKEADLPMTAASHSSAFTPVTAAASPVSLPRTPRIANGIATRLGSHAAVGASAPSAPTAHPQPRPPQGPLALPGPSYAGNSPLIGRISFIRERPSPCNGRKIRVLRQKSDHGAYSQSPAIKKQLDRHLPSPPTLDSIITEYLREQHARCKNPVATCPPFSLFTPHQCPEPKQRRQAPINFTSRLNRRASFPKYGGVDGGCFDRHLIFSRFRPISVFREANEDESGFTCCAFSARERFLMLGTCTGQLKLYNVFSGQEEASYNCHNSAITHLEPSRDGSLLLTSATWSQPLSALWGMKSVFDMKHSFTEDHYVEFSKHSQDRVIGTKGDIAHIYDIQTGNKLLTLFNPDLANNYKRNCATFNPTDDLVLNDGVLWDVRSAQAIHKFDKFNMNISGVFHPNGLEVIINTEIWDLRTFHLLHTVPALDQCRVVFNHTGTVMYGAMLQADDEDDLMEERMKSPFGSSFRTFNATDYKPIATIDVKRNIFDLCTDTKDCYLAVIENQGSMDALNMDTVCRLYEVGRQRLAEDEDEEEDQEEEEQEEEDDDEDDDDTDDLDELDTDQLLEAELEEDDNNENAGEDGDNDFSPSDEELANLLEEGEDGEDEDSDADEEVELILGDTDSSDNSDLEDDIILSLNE
target | temperature | SYPRO Orange fluorescence
WDR5 | 45.8 °C | 14300 a.u.
WDR5 | 55.61 °C | 13200 a.u.
WDR5 | 87.81 °C | 43500 a.u.
WDR5 | 38.6 °C | 14400 a.u.
WDR5 | 34.6 °C | 14300 a.u.
DCAF1 | 68.01 °C | 56100 a.u.
WDR5 | 82.41 °C | 31300 a.u.
WDR5 | 86.41 °C | 42100 a.u.
DCAF1 | 73.21 °C | 51200 a.u.
WDR5 | 35.6 °C | 14300 a.u.
WDR5 | 91.81 °C | 41600 a.u.

Study 7
SMILES: COc1cc(C(=O)OCCCN2CCCN(CCCOC(=O)c3cc(OC)c(OC)c(OCc4ccc([N+](=O)[O-])cc4)c3)CC2)cc(OC)c1OC
assay | test system | setting | paw withdrawal threshold
 | mice, STZ diabetic neuropathy | intrathecal, 10 nmol, 5 h, with: DPCPX 10 nmol, 30 min before | 0.15 g and 0.12 g and 0.29 g and 0.14 g and 0.03 g
mechanical pain, von Frey test | mouse, STZ diabetic neuropathy | intravenous, 30 mg/kg, 5 h post-dose, first injection, day 8 | 0.29 g and 0.05 g and 0.2 g and 0.44 g and 0.23 g
 | mice, STZ diabetic neuropathy | intrathecal, 10 nmol, 3 h, with: DPCPX 10 nmol, 30 min before | 0.4 g and 0.65 g and 0.08 g and 0.02 g and 0.06 g and 0.59 g
mechanical pain, von Frey test | mouse, STZ diabetic neuropathy | intravenous, 30 mg/kg, 3 h post-dose, third injection | 0.4 g and 0.98 g and 0.51 g and 0.44 g
von Frey test | mouse, CFA inflammatory pain | subcutaneous, 10 mg/kg, 24 h post-dose, second injection, day 3 | 0.23 g and 0.32 g and 0.29 g
von Frey test | mouse, CFA inflammatory pain | intravenous, dose not given, baseline before CFA | 1.56 g and 1.3 g and 0.98 g and 0.75 g
mechanical pain, von Frey test | mouse, STZ diabetic neuropathy | intravenous, 30 mg/kg, 24 h post-dose, third injection | 0.51 g and 0.32 g and 0.4 g
mechanical pain, von Frey test | mouse, STZ diabetic neuropathy | intravenous, 30 mg/kg, 5 h post-dose, third injection | 0.27 g and 0.4 g and 0.65 g and 0.44 g
von Frey test | mouse, CFA inflammatory pain | intravenous, dose not given, 1 h post-dose, first injection, day 1 | 0.51 g and 0.75 g and 0.44 g and 0.4 g and 0.32 g and 0.59 g
von Frey test | mouse, CFA inflammatory pain | intravenous, dose not given, 24 h post-dose, first injection, day 1 | 0.11 g and 0.29 g and 0.17 g and 0.23 g and 0.32 g and 0.19 g

Study 8
SMILES: CCN1/C(=C/C=C2\CCCC(/C=C/C3=[N+](CC)c4ccccc4C3(C)C)=C2NCCCCCCCCN2CCC(Nc3nc4ccccc4n3Cc3ccc(F)cc3)CC2)C(C)(C)c2ccccc21
Cell line: U-87 MG
Tested at: concentration not given
Baseline: DMSO
item | log2 fold change
TLR1 mRNA | -1.73
FANCB mRNA | -1.86
TCHH mRNA | -3.32
CPNE4 mRNA | 1.67
CARD10 mRNA | -1.65
NGF mRNA | 2.18
SYNGR2 mRNA | 1.8
TNFRSF1A mRNA | -0.975
EHD3 mRNA | -0.864
BRAF mRNA | 0.957
SPRY2 mRNA | 0.872
ZSWIM6 mRNA | 0.836

A few entries again (study 8):
item | log2 fold change
FANCB mRNA | -1.86
TLR1 mRNA | -1.73
ZSWIM6 mRNA | 0.836
SPRY2 mRNA | 0.872
TCHH mRNA | -3.32
NGF mRNA | 2.18
BRAF mRNA | 0.957
CPNE4 mRNA | 1.67
SYNGR2 mRNA | 1.8
CARD10 mRNA | -1.65
TNFRSF1A mRNA | -0.975
